# Assay results from different studies.
# Sequences of proteins named here, by UniProt entry; tags and fusion partners are left off. Residues count along the entry.
# UniProt Q96PH1, 1-719 isoform 4: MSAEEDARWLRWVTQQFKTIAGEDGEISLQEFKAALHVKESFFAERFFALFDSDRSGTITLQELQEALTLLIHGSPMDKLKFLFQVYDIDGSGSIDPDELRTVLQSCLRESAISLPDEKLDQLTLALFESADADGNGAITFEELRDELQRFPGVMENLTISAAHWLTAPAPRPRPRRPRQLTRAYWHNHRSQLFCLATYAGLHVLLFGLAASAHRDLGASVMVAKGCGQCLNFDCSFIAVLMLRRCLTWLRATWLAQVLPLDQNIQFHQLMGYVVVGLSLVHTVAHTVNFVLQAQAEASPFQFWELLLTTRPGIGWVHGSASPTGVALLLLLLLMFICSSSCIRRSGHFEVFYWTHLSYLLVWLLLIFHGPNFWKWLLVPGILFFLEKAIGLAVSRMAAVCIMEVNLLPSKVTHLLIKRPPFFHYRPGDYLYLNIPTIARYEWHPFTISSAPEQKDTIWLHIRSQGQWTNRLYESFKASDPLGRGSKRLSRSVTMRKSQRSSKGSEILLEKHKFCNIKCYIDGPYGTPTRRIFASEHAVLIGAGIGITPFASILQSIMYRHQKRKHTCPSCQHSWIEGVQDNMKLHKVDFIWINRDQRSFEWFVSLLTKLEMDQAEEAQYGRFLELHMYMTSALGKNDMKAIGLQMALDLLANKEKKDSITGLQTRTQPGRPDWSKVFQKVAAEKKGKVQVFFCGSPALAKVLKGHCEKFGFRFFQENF
# UniProt P31652, whole entry: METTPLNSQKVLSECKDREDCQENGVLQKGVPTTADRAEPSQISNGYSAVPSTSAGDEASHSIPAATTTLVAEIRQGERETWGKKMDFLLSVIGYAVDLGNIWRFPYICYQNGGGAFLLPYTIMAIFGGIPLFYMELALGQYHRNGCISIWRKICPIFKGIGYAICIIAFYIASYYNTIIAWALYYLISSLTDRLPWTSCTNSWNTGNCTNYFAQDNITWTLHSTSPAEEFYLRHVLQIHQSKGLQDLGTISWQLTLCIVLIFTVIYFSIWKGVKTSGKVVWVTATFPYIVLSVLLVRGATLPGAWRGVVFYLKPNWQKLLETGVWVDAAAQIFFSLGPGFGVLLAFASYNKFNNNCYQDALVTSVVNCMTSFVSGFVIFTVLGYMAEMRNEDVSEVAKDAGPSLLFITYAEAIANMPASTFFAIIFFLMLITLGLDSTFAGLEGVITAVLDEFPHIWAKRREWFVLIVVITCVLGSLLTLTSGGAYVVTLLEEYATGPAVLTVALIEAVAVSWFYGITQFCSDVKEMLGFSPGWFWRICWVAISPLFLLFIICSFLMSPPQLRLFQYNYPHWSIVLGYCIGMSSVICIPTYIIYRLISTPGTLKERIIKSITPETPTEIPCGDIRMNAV
# UniProt P41145, whole entry: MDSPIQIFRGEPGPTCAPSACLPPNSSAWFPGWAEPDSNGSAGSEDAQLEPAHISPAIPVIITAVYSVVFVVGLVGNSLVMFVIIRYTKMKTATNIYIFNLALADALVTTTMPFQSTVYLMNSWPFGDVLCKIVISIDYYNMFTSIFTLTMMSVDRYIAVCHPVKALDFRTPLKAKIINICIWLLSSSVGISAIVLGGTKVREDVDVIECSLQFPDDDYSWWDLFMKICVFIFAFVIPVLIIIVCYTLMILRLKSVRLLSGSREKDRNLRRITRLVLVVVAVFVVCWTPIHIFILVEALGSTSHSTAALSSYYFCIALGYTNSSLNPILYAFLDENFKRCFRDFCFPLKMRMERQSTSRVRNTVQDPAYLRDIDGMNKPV
# UniProt P41143, whole entry: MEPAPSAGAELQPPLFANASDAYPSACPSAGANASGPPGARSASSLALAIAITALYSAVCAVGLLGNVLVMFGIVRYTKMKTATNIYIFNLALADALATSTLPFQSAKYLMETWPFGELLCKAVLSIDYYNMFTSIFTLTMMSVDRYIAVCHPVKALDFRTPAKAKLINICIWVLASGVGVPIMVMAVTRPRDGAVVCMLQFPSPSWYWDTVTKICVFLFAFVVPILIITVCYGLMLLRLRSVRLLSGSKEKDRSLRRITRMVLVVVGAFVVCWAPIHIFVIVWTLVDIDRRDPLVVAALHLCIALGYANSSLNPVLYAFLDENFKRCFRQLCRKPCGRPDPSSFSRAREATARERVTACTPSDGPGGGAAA
# UniProt P23977, whole entry: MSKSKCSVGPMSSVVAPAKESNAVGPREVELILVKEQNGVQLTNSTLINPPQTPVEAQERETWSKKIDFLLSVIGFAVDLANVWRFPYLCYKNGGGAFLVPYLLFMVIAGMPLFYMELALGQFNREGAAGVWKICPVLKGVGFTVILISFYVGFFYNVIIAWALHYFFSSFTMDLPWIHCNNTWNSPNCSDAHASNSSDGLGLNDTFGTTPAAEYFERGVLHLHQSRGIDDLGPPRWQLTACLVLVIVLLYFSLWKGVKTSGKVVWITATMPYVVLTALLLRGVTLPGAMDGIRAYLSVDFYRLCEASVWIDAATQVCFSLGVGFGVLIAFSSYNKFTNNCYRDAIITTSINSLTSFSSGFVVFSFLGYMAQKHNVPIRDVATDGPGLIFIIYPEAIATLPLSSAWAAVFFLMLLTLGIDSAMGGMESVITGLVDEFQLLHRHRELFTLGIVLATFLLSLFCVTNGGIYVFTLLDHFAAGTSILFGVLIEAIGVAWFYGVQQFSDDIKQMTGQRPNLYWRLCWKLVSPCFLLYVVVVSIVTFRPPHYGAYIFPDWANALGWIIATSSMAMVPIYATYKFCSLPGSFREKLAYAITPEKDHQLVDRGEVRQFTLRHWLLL
# UniProt P35372, whole entry: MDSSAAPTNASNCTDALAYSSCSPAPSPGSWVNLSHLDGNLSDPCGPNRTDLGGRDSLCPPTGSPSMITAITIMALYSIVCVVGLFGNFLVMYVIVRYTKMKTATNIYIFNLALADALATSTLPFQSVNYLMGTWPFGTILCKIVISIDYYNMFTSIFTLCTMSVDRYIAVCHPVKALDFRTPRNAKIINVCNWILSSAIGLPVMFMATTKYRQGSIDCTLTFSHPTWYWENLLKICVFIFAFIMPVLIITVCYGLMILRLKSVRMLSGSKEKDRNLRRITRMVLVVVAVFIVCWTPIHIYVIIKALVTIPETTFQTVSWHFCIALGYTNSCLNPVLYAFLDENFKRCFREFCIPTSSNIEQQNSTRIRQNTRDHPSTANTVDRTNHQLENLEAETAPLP
# UniProt P23275, whole entry: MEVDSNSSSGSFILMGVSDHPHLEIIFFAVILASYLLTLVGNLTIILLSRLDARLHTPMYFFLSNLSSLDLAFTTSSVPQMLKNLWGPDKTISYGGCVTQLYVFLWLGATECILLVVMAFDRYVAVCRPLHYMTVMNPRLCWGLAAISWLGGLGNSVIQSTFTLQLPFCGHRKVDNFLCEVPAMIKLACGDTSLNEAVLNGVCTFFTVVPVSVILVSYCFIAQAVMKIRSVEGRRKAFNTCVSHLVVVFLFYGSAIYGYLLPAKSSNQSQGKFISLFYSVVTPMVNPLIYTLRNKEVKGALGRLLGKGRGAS
# UniProt Q16816, whole entry: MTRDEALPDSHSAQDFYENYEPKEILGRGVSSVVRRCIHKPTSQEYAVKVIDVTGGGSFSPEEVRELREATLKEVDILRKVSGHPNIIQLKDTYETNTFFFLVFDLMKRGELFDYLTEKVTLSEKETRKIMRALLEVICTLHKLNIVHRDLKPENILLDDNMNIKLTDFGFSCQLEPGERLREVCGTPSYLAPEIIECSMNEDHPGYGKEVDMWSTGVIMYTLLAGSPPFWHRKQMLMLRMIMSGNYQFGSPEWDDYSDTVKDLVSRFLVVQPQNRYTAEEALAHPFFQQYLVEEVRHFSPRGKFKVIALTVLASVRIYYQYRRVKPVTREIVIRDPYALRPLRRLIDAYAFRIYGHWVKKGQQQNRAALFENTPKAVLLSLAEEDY
# UniProt Q9GZN0, whole entry: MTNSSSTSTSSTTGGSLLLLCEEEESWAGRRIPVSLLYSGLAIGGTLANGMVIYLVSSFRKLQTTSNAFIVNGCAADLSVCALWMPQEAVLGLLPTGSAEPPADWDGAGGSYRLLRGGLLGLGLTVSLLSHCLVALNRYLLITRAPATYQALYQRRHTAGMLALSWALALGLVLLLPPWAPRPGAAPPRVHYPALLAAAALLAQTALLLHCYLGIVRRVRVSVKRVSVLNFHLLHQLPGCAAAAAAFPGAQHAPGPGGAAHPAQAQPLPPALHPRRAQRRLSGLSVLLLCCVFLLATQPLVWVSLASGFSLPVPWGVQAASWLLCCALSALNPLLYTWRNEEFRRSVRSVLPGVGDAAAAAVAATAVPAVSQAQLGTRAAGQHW
# UniProt Q00961, whole entry, looked up: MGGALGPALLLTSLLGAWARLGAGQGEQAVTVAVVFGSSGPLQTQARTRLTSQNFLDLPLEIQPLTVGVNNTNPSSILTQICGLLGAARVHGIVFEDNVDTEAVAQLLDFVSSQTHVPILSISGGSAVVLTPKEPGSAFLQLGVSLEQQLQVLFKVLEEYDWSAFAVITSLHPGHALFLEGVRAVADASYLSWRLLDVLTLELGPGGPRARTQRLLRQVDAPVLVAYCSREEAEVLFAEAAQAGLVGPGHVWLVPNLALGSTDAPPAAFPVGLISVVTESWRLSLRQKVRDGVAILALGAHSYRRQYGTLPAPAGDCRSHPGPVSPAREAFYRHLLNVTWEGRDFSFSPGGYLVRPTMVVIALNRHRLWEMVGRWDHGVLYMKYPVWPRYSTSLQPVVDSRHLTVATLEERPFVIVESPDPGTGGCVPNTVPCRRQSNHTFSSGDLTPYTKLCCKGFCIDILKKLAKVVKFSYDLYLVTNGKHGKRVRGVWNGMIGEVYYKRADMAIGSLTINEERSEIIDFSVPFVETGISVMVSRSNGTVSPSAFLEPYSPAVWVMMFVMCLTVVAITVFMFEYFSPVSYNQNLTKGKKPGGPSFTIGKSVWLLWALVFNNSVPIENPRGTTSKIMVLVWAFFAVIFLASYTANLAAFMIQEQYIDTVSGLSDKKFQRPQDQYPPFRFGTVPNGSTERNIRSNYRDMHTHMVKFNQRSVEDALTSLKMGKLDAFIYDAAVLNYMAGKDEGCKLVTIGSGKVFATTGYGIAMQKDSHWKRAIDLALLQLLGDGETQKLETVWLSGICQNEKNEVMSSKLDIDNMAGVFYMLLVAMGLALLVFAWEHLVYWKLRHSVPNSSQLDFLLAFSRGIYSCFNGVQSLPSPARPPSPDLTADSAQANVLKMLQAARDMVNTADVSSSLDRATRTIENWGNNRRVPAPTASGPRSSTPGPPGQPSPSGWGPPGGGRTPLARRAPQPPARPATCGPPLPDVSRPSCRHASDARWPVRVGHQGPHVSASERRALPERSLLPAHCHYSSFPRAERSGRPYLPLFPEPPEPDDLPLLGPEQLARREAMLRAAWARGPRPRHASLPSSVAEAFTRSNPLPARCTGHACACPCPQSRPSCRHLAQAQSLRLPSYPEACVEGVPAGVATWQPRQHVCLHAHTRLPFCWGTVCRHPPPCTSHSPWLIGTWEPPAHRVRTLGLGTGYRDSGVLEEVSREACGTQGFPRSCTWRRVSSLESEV
# UniProt Q9NPH5, whole entry: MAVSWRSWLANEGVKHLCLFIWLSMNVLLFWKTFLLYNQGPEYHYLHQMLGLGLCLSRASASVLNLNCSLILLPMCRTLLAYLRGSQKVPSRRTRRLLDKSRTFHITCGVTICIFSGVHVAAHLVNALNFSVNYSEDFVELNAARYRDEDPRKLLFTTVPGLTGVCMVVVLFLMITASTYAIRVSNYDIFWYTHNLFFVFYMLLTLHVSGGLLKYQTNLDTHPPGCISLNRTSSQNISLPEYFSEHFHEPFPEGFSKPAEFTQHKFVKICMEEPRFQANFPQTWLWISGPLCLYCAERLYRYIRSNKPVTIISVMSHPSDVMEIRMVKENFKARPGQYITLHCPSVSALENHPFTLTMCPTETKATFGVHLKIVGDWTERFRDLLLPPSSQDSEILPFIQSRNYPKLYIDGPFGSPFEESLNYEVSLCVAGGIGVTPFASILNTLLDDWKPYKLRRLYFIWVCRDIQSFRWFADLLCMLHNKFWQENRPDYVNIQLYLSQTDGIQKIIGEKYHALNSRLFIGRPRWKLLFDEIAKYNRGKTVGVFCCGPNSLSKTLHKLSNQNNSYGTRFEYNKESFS
# UniProt Q9BJF5, 1-507: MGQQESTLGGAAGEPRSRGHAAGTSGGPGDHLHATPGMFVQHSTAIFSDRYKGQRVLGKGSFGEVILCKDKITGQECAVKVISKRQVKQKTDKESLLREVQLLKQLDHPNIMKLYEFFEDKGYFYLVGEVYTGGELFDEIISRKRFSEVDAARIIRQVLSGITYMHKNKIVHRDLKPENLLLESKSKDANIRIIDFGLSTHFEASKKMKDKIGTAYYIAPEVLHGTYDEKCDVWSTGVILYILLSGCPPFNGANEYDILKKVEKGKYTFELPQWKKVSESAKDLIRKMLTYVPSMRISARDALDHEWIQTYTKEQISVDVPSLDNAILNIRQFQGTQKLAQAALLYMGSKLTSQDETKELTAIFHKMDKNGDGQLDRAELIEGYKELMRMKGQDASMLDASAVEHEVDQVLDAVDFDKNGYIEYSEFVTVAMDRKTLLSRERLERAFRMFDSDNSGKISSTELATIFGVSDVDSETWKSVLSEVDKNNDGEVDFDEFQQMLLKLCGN
# Each line is one published result; not all experiments were run side by side. Several values in a cell are separate wells, animals, samples, runs or records. ± marks the error that the study gave.
# NOX5: NADPH oxidase 5 (NOX5, Homo sapiens, UniProt Q96PH1)
# Slc6a4: Sodium-dependent serotonin transporter (Slc6a4, Rattus norvegicus, UniProt P31652)
# OPRK1: Kappa-type opioid receptor (OPRK1, Homo sapiens, UniProt P41145)
# OPRD1: Delta-type opioid receptor (OPRD1, Homo sapiens, UniProt P41143)
# Slc6a3: Sodium-dependent dopamine transporter (Slc6a3, Rattus norvegicus, UniProt P23977)
# OPRM1: Mu-type opioid receptor (OPRM1, Homo sapiens, UniProt P35372)
# Or2c1: Or2c1 (Mus musculus, UniProt P23275)
Substance,tested on,assay,system,setting,scale,endpoint,result
CC(C)c1ccc2nc(Sc3ncnc4c3nnn4Cc3ccccc3)oc2c1,NOX5,"enzyme activity, Amplex Red",NOX5-overexpressing cells,,,EC50,860 ± 300 nM
NCCc1c[nH]c2cccc(F)c12,Slc6a4,"serotonin release, releaser",rat brain synaptosomes,,,EC50,108 ± 9 nM
O=c1ccc2nc3ccc(OCc4ccc([N+](=O)[O-])s4)cc3oc-2c1,Mycobacterium tuberculosis,,mc2 6206 bedaquiline-resistant MmpL5 regulator mutant,7 days,,MIC90,> 256 µM
O=C(Nc1ccccc1)c1cc([N+](=O)[O-])ccc1Cl,Salmonella typhimurium,Ames plate incorporation,TA98,"50 µg/plate, without metabolic activation",,revertants,55 ± 14 revertants/plate
CCC(N)Cc1c[nH]c2ccc(Cl)cc12 (stereo not shown),Slc6a4,"serotonin release, releaser",rat brain synaptosomes,,,EC50,33.2 ± 3.6 nM
CCN(CC)C(=O)Oc1ccc(C(=O)Nc2cccc3cc[nH]c23)cc1,"Neuronal acetylcholine receptor subunit alpha-7 (CHRNA7, Homo sapiens, UniProt P36544)","modulator, two-electrode voltage clamp",Xenopus oocytes,"20 µM, with: 300 µM acetylcholine",reference: agonist alone,current response,89.6 ± 4.2%
CCCCCCC1c2ccc(O)cc2Oc2cc(O)ccc21,Pseudomonas aeruginosa,,MDR clinical isolate,,,MIC,> 373 µg/mL
ethoxymethyl salvinorin B,OPRK1,agonist,,human receptor,,EC50,2.3 nM
CSc1nc(Cl)cc(Sc2nnc(-c3cc(C(F)(F)F)cc(C(F)(F)F)c3)[nH]2)n1,Escherichia coli,,MC4100,"37 °C, without PMBN",,MIC,> 590 µg/mL
CC[C@@](O)(c1ccccc1)[C@H]1C[C@@]23CC[C@]1(OC)[C@@H]1Oc4c(O)ccc5c4[C@@]12CCN(CC1CC1)[C@@H]3C5,OPRD1,"G-protein activation, agonist",,,,EC50,8.9 ± 1.8 nM
Cc1ccc2[nH]cc(CCN)c2c1,Slc6a3,"dopamine release, releaser",rat brain synaptosomes,,,EC50,> 10000 nM
c1ccc(Cn2nnc3c(Sc4nc5ccccc5[nH]4)ncnc32)cc1,NOX5,"enzyme activity, Amplex Red",NOX5-overexpressing cells,,,EC50,> 15000 nM
CN(C(=O)Cc1ccc(Cl)c(Cl)c1)C1CCC2(CCCO2)CC1N1CCCC1 (stereo not shown),OPRK1,agonist,,human receptor,,EC50,12 nM
CC#C/C(=N\OC[C@H]1COCCN1)c1ccc2ncnc(Nc3ccc(OCc4cccc(F)c4)c(Cl)c3)c2c1,"Phosphorylase b kinase gamma catalytic chain, skeletal muscle/heart isoform (PHKG1, Homo sapiens, UniProt Q16816)",kinase activity,,10 µM,,inhibition,6.4%
CNCCc1c[nH]c2ccccc12,Slc6a3,"dopamine release, releaser",rat striatal synaptosomes,,,EC50,321 ± 23 nM
CO[C@]12CC[C@@]3(C[C@@H]1[C@@H](O)c1ccccc1)[C@H]1Cc4ccc(O)c5c4[C@@]3(CCN1CC1CC1)[C@H]2O5,OPRM1,"G-protein activation, agonist",,,reference: DAMGO,EC50,1.55 ± 0.28 nM
COc1ccc2c(CCN)c[nH]c2c1,Slc6a3,"dopamine release, releaser",rat brain synaptosomes,,,EC50,113 nM and < 165 nM
O[As](O)O,"Arsenical pump-driving ATPase (arsA, Escherichia coli, UniProt P08690)","enzyme activation, activator",,,,EC50,700000 ± 50000 nM
CN(C(=O)Cc1ccc(Cl)c(Cl)c1)[C@H](CN1CCCC1)c1ccccc1,OPRK1,agonist,,human receptor,,EC50,0.24 nM
Brc1ccc2nc(Sc3ncnc4c3nnn4Cc3ccccc3)oc2c1,NOX5,"enzyme activity, Amplex Red",NOX5-overexpressing cells,,,EC50,2500 ± 300 nM
CCOc1ccc2cc(-c3nn(CC4CCN(C)CC4)c4ncnc(N)c34)ccc2n1,,,,"concentration not given, rat",,half-life,> 2 h
CCC[C@H](C)COc1ccc([C@@H](CO)C(=O)N[C@H](C)c2ccccc2)cc1,"G protein-coupled receptor 88 (Homo sapiens, UniProt Q9GZN0)","cAMP level, agonist, TR-FRET",CHO overexpressing G protein-coupled receptor 88,with: forskolin 300 nM,,EC50,468 nM
CC[C@](O)([C@H]1C[C@@]23CC[C@]1(OC)[C@@H]1Oc4c(O)ccc5c4[C@@]12CCN(CC1CC1)[C@@H]3C5)C(C)(C)C,OPRD1,"G-protein activation, agonist",,,,EC50,> 10000 nM
NCCc1c[nH]c2cc(F)ccc12,"Transporter (Slc6a2, Rattus norvegicus, UniProt Q63380)","noradrenaline release, releaser",rat brain synaptosomes,,,EC50,1580 ± 104 nM
CC[C@](O)([C@H]1C[C@@]23C=C[C@]1(OC)[C@@H]1Oc4c(O)ccc5c4[C@@]12CCN(CC1CC1)[C@@H]3C5)C(C)(C)C,OPRM1,"G-protein activation, agonist",,,reference: DAMGO,EC50,238 ± 19 nM
COc1ccc(OC[C@H]2c3cccn3CC(=O)N2Cc2cccc(F)c2)cc1,"Glutamate receptor ionotropic, NMDA 2C, with GluN1 (Rattus norvegicus, UniProt Q00961)","ion current, whole-cell patch clamp","HEK293T cells, transfected","10 µM, holding -70 mV, with: 1 mM glutamate for 10 ms plus 100 µM glycine",,peak current,-181 ± 126 pA
Cc1cccc([N+](=O)[O-])c1,Or2c1,"ion current, agonist, two-electrode voltage clamp",Xenopus oocytes,15 s,,EC50,37000 ± 13000 nM
CCN1CCN(Cc2ccc(NC(=O)c3ccc(C)c(/C=C/c4cnc5[nH]ccc5c4OC)c3)cc2C(F)(F)F)CC1,NDE1-PDGFRB fusion,"kinase-CDC37 interaction, cell-based kinome screen",,5 µM,reference: vehicle,log2 fold change,0.135
COc1cccc2[nH]cc(CCN)c12,Slc6a3,"dopamine release, releaser",rat brain synaptosomes,,,EC50,> 10000 nM
CC[C@@](O)(c1ccccc1)[C@H]1C[C@@]23C=C[C@]1(OC)[C@@H]1Oc4c(O)ccc5c4[C@@]12CCN(CC1CC1)[C@@H]3C5,OPRM1,"G-protein activation, agonist",,,reference: DAMGO,EC50,31.8 ± 18.5 nM
COc1ccc2nc(Sc3ncnc4c3nnn4Cc3ccccc3)oc2c1,NOX5,"enzyme activity, Amplex Red",NOX5-overexpressing cells,,,EC50,3300 ± 700 nM
NCCc1c[nH]c2ccc(Cl)cc12,Slc6a3,"dopamine release, releaser",rat brain synaptosomes,,,EC50,476 nM and < 500 nM
C[C@H](Cc1ccc(O)c(O)c1)[C@@H](C)Cc1ccc(O)c(O)c1,,,DMSO,"24 h, room temperature",,solubility,> 100 mg/mL
CO[C@]12C=C[C@@]3(C[C@@H]1[C@H](O)c1ccccc1)[C@H]1Cc4ccc(O)c5c4[C@@]3(CCN1CC1CC1)[C@H]2O5,OPRD1,"G-protein activation, agonist",,,,EC50,1.76 ± 0.46 nM
Cc1ccc2nc(Sc3ncnc4c3nnn4Cc3ccccc3)oc2c1,"NADPH oxidase 4 (NOX4, Homo sapiens, UniProt Q9NPH5)","enzyme activity, inhibitor, Amplex Red",cell-free membranes,,,EC50,7000 ± 4000 nM
NCCc1c[nH]c2ccccc12,Slc6a4,"serotonin release, releaser",rat brain synaptosomes,,,EC50,32.6 ± 2.6 nM
CCOc1ccc2cc(-c3nn(C(C)(C)CCO)c(N)c3C(N)=O)ccc2c1,"Calmodulin-domain protein kinase 1 (CDPK1, Toxoplasma gondii, UniProt Q9BJF5)","kinase activity, inhibitor",,,,IC50,0.2 nM
CCCN1CCN(c2ccc3c(c2)C2CC3CCN2C(=O)OCc2ccccc2)CC1 (stereo not shown),"5-hydroxytryptamine receptor 7 (HTR7, Homo sapiens, UniProt P34969)","binding, radioligand binding",,,,Ki,766 nM
CCCCCCC=O,Or2c1,"ion current, agonist, two-electrode voltage clamp",Xenopus oocytes,15 s,,EC50,19000 ± 6000 nM
Cc1cccc2oc(Sc3ncnc4c3nnn4Cc3ccccc3)nc12,NOX5,"enzyme activity, Amplex Red",NOX5-overexpressing cells,,,EC50,2600 ± 1000 nM
Cc1cccc2c(CCN)c[nH]c12,Slc6a4,"serotonin release, releaser",rat brain synaptosomes,,,EC50,23.7 ± 1.9 nM
Fc1ccc2nc(Sc3ncnc4c3nnn4Cc3ccccc3)oc2c1,NOX5,"enzyme activity, Amplex Red",NOX5-overexpressing cells,,,EC50,5100 ± 800 nM
CN(C(=O)Cc1cccc2occc12)[C@H]1CC[C@@]2(CCCO2)C[C@@H]1N1CCCC1,OPRK1,"receptor internalization, agonist, on-cell western",N2a,"1 h, human receptor",,EC50,3.9 nM
